Experimental data collected from several papers.
Compare with care: the assays were run in different laboratories. Values joined by “and” are separate records of one study, mostly repeats; a detail may differ. ± gives the spread as reported. Positions of bridges follow the written chain, without caps; N, C: chain ends. No end group written: not given here.

Substance = abamectin; target or system = NR1H3 (Homo sapiens, UniProt Q13133); assay = coactivator recruitment, antagonist, TR-FRET; measurement = IC50; result = 2030 ± 1620 nM
Substance = aspterric acid; assay = root length; test system = Arabidopsis thaliana Col-0 seeds; setting = 12.5 µg/mL, 7 days, dark; measurement = inhibition; result = 99.2%
Substance = insulin human; assay = item: TGM2 mRNA; test system = uninfected mouse, brain; setting = i.p., dose not given; scale = baseline: PBS; measurement = fold change; result = 1.35
Substance = Polymyxin B; test system = mouse, urine; setting = 20 mg/kg; measurement = Kim-1 level; result = 40.1 ng/mL
Substance = (−)-cocaine; target or system = cardiac sodium channel (calf); setting = batrachotoxin-activated; measurement = Kd; result = ~20000 nM
Substance = ACHPQFYVICSG (disulfide 2-10 (inferred)) (disulfide); target or system = Streptavidin (Streptomyces avidinii, UniProt P22629, E68V/S69T/V71R); assay = binding, yeast surface display; setting = 1 h, 4 °C, with: Strep-Tactin; measurement = Kd; result = 6.1 ± 0.3 nM
Substance = nonaarginine; target or system = PorA peptide pore; assay = peptide binding, planar bilayer single-channel recording; setting = pH 7.4, -20 mV, cis side, 150 mM KCl; measurement = Kd; result = 1360 ± 150 nM
Substance = dynorphin; target or system = HCRTR2 (Homo sapiens, UniProt O43614, del254-292/I293E/K294R/L160H/M161K/Q254E); assay = sensor fluorescence, fluorescence imaging; test system = HEK293T; setting = concentration not given, unit not given; scale = baseline: baseline; measurement = ΔF/F0; result = 0.118 and 3.13 and 0.624 and 1.88 and -1.65 and -0.728
Substance = TNP-AMP; target or system = Fructose-1,6-bisphosphatase 1 (Mus musculus, UniProt Q9QXD6); assay = fluorescence titration; test system = 1 µM enzyme, untagged; setting = 25 °C, wild type; measurement = Kd; result = 19400 ± 1860 nM
Substance = hexaarginine; target or system = PorA peptide pore; assay = peptide binding, planar bilayer single-channel recording; setting = pH 7.4, +15 mV, trans side, 150 mM KCl; measurement = Kd; result = 9860 ± 1000 nM
Substance = thalidomide-FITC conjugate; target or system = Protein cereblon, with DDB1 (CRBN, Homo sapiens, UniProt Q96SW2); assay = binding, TR-FRET; setting = CRBN-DDB1 complex; measurement = Kd; result = 96 ± 21 nM
Substance = tunicamycin; target or system = mraY (Staphylococcus aureus, UniProt Q2FZ93); assay = enzyme activity, inhibitor; measurement = IC50; result = 16 nM
Substance = dynorphin B; target or system = opioid receptor mouse; assay = binding; test system = CD-1 mouse brain; measurement = Ki; result = 6.7 ± 3.5 nM
Substance = Ivermectin; target or system = Bile acid receptor (NR1H4, Homo sapiens, UniProt Q96RI1); assay = coactivator recruitment, antagonist, TR-FRET; setting = with: chenodeoxycholic acid 50 µM; measurement = IC50; result = 760 ± 90 nM
Substance = Ac-DEVD-CHO; target or system = Caspase-6 (CASP6, Homo sapiens, UniProt P55212); assay = enzyme activity, inhibitor; measurement = IC50; result = 45.3 nM

For quick reference, copied from above:
Substance = tunicamycin; target or system = mraY (Staphylococcus aureus, UniProt Q2FZ93); assay = enzyme activity, inhibitor; measurement = IC50; result = 16 nM
